Results pooled from the literature.
Protocols differ between the studies behind these lines. ± marks the error that the study gave. ≈ marks a conversion by molar mass, not a printed value.

SMILES = CCOC(=O)C1=C(C)NC2=C(C(=O)CC(C)(C)C2)C1c1ccc(OCC(=O)NN=Cc2cc(Br)c(O)c(Br)c2)cc1OCC(=O)NN=Cc1cc(Br)c(O)c(Br)c1 (stereo not shown); organism = Listeria monocytogenes; system = NCTC 5348; conditions = concentration not given, 24 h, 37 °C; measurement = inhibition zone diameter; value = 11.6 ± 0.6 mm
SMILES = CC(C)C(C(=O)Nc1ccc(C(=O)NO)cc1)c1ccccc1 (stereo not shown); organism = Lucilia cuprina; assay = larval weight gain; system = LS strain, larvae on impregnated cotton wool; conditions = 24 h; measurement = IC50; value = 34 µg
SMILES = Oc1c(Br)ccc2cccnc12; organism = Shewanella putrefaciens; assay = agar dilution; system = ATCC 8071; measurement = MIC; value = 35.7 µM (≈ 8 µg/mL)
SMILES = CC1=CC[C@@H]2[C@H](C1)C2(C)C; organism = Mythimna separata; assay = olfactory preference, Y-tube olfactometer; conditions = females; how to read = reference: liquid paraffin control; measurement = choice of control; value = 60%
SMILES = CNc1cc(C(=O)Nc2ccc(Cl)cc2)ccc1OC; organism = duck hepatitis B virus; assay = viral replication, qPCR; system = DHBV-infected Pekin ducklings; conditions = oral, 25 mg/kg, day 14; measurement = serum DHBV DNA; value = inhibited
SMILES = CCc1cccc2c(C(=O)COC(=O)C34CC5CC(CC(Br)(C5)C3)C4)c[nH]c12; organism = Arabidopsis thaliana; assay = refers to: STH7; system = seedlings; conditions = 20 µM, 24 h, 10-day-old seedlings; measurement = mRNA level; value = decreased
SMILES = CC1(CCCCCCCCCCOCCCOP(=O)(O)CO[C@H](CO)Cn2ccc(N)nc2=O)COC1; organism = Betapolyomavirus hominis; assay = qPCR; system = Gardner; how to read = reference: CC50 over EC50; measurement = selectivity index; value = > 59
SMILES = C=Cc1cn([C@@H]2O[C@H](CO)C[C@H]2O)c2ncnc(N)c12; organism = Trypanosoma vivax; assay = parasite growth, resazurin; conditions = 24 h; measurement = EC50; value = 1570 nM
SMILES = O=c1[nH]cc(C(c2cccc(F)c2)c2c[nH]c(=O)[nH]c2=O)c(=O)[nH]1; organism = HIV-1 subtype C; assay = refers to: p24; conditions = concentration not given; measurement = antiviral activity; value = inactive
SMILES = C#Cc1cn([C@@H]2O[C@H](CO)C[C@H]2O)c2ncnc(N)c12; organism = Trypanosoma vivax; assay = parasite growth, resazurin; conditions = 24 h; measurement = EC50; value = 159 nM
SMILES = COc1ccc(-c2ccn(CC[C@](C)(C(=O)NO)S(C)(=O)=O)c(=O)c2)c(F)c1; organism = Pseudomonas aeruginosa; system = PA-1950, mice acute septicaemia model; conditions = subcutaneous; measurement = ED50; value = 7.4 mg/kg
SMILES = Fc1ccc2c(c1)c1nc3ccc(Br)cc3c-1cn2Cc1cn(-c2ccccc2I)nn1; organism = Giardia duodenalis; assay = UHPLC-Q-TOF-MS, refers to: PS(P-20:0/22:6); system = trophozoites; conditions = IC50, 0.2083 h; how to read = reference: 0.25% DMSO; measurement = fold change; value = -64.8
SMILES = COc1ccc(-n2c(=O)c(C(=O)C3C(=O)CCCC3=O)nc3ccccc32)cc1; organism = Monochoria vaginalis; assay = herbicidal activity, paddy pot test, visual rating; conditions = 28 days; measurement = ED90; value = 6.3 g a.i./10 a
SMILES = Nc1ncnc2c1ccn2[C@@H]1O[C@H](CO)C[C@H]1O; organism = Trypanosoma vivax; assay = parasite growth, resazurin; conditions = 24 h; measurement = EC50; value = 3480 nM
SMILES = C=C(C)[C@@H]1CC[C@]2(CCNCCCN3CCCC3)CC[C@]3(C)[C@H](CC[C@@H]4[C@@]5(C)CC[C@H](OC(=O)CC(C)(C)C(=O)O)C(C)(C)[C@@H]5CC[C@]43C)[C@@H]12; organism = human immunodeficiency virus 1; assay = western blot; system = HEK293T transfected, subtype B NL4-3, virion lysates; conditions = 100 nM; how to read = reference: total CA; measurement = CA-SP1 accumulation; value = 25 to 30%
SMILES = CCCC(CCC)C(=O)NO; organism = Lucilia cuprina; assay = larval weight gain; system = LS strain, larvae on impregnated cotton wool; conditions = 24 h; measurement = IC50; value = > 1000 µg
SMILES = CC(=O)[O-].O.O.O.O.[Ni+2].[O-]c1ccc(Br)cc1C=NCCN1CCOCC1; organism = Candida albicans; conditions = 20 µL of 100 µM per disc; measurement = inhibition zone diameter; value = 25 mm
SMILES = O=C(NO)c1ccc(CC(=O)N(CCO)c2ccccc2)cc1; organism = Lucilia cuprina; assay = larval weight gain; system = LS strain, larvae on impregnated cotton wool; conditions = 24 h; measurement = IC50; value = > 1000 µg
SMILES = CC1(CCCCCCCCCCCCCCOCCCOP(=O)(O)CO[C@H](CO)Cn2ccc(N)nc2=O)COC1; organism = Betapolyomavirus hominis; assay = qPCR; system = Gardner; how to read = reference: CC50 over EC50; measurement = selectivity index; value = 1220
SMILES = O=c1[nH]cc(C(c2ccc(F)cc2)c2c[nH]c(=O)[nH]c2=O)c(=O)[nH]1; organism = HIV-1 subtype C; assay = refers to: p24; conditions = concentration not given; measurement = antiviral activity; value = inactive
SMILES = CC[C@@H](C)[C@@H](NC(=O)[C@@H](C)NC(=O)[C@@H](CCCCN)NC(=O)[C@@H](CC(C)C)NC(=O)[C@@H](C)NC(=O)[C@H](NC(=O)[C@@H](CCCCN)NC(=O)[C@@H](CC(C)C)NC(=O)[C@H](NC(=O)[C@@H](CCCCN)NC(=O)[C@@H](CCCCN)NC(=O)[C@@H](CCCCN)NC(=O)[C@@H](C)NC(=O)[C@@H](CCCCN)NC(=O)[C@@H](CO)NC(=O)[C@@H](Cc1ccccc1)NC(=O)[C@H](NC(=O)[C@@H](CCCCN)NC(=O)[C@@H](CC(C)C)NC(=O)[C@@H](Cc1ccccc1)NC(=O)[C@@H](CO)NC(=O)[C@@H](CCCCN)NC(=O)[C@@H](Cc1c[nH]c2ccccc12)NC(=O)[C@@H](CCCCN)NC(C)=O)[C@H](C)O)C(C)C)[C@H](C)O)C(=O)N[C@H](CO)C(=O)N[C@H](CCCCN)C(N)=O; organism = Acinetobacter baumannii; system = 11 isolates; conditions = 24 h, 37 °C; measurement = MIC geometric mean; value = 0.6 µM (≈ 1.83 µg/mL)
SMILES = CC(C)C(=O)SCCCCCC(NC(=O)OC(C)(C)C)C(=O)NC12CC3CC(CC(C3)C1)C2 (stereo not shown); organism = Lucilia cuprina; assay = pupation; system = LS strain, larvae on impregnated cotton wool; conditions = 216 h; measurement = IC50; value = > 1000 µg
SMILES = O=[N+]([O-])c1ccc(CSc2nnc(C34CC5CC(CC(C5)C3)C4)n2-c2ccccc2)cc1; organism = Candida albicans; assay = microbial growth, disc diffusion; system = IFO0583; conditions = 200 µg/disc, 48 h; measurement = inhibition zone; value = 12 mm
SMILES = CC(C)C[C@@H]1NC(=O)[C@H](C)NC(=O)CCNC(=O)[C@@H](Cc2ccccc2)NC1=O; organism = Lolium multiflorum; assay = herbicidal activity, germination in agar; conditions = 67 µg/mL, 12 days; measurement = leaf development inhibition; value = 23%
SMILES = O=c1[nH]cc(C(c2cccc(C(F)(F)F)c2)c2c[nH]c(=O)[nH]c2=O)c(=O)[nH]1; organism = HIV-1 subtype C; assay = viral replication, refers to: p24; measurement = IC50; value = 192 µg/mL
SMILES = CC(C)(C)OC(=O)Nc1ccc(-c2cc(C(=O)NCCCCCCC(=O)NO)no2)cc1; organism = Lucilia cuprina; assay = pupation; system = LS strain, larvae on impregnated cotton wool; conditions = 216 h; measurement = IC50; value = > 1000 µg
SMILES = CN1C[C@H](c2cccc(C(F)(F)F)c2)[C@@H](C(=O)Nc2ccccc2F)C1=O; organism = Arabidopsis thaliana; assay = root length; system = overexpressing mutant DHODH MT-8; conditions = 5 µM; how to read = reference: non-transgenic wild type; measurement = resistance; value = ~5.4 fold
SMILES = Nc1ncnc2c1c(F)cn2[C@@H]1O[C@H](CO)C[C@H]1O; organism = Trypanosoma vivax; assay = parasite growth, resazurin; conditions = 24 h; measurement = EC50; value = 500 nM
SMILES = O=[N+]([O-])c1c(Br)c(Cl)c2cccnc2c1O; organism = bacteria; conditions = panel of 19 strains, 5 species; measurement = MIC50; value = 4 µg/mL (≈ 13.2 µM)
SMILES = C=C(C)[C@@H]1CC[C@]2(CNCCN3CCN(Cc4ccccc4)CC3)CC[C@]3(C)[C@H](CC[C@@H]4[C@@]5(C)CC[C@H](OC(=O)CC(C)(C)C(=O)O)C(C)(C)[C@@H]5CC[C@]43C)[C@@H]12; organism = human immunodeficiency virus 1; assay = western blot; system = HEK293T transfected, subtype B NL4-3, virion lysates; conditions = 100 nM; how to read = reference: total CA; measurement = CA-SP1 accumulation; value = 70 to 75%
SMILES = COC1C=COC2(C)Oc3c(C)c(O)c4c(c3C2=O)C2=NC3(CCN(CC(C)C)CC3)NC2=C(NC(=O)C(C)=CC=CC(C)C(O)C(C)C(O)C(C)C(OC(=O)Nc2cnccn2)C1C)C4=O (stereo not shown); organism = Mycobacteroides abscessus; assay = intracellular bacterial growth; system = THP-1 derived macrophages, ATCC 19977; measurement = IC50; value = 30 nM
SMILES = Brc1ccc(-c2c[nH]c(-c3ccccn3)n2)cc1; organism = Schistosoma mansoni; system = female worms; conditions = 50 µM; measurement = worm killing; value = 0%
SMILES = [NH-]c1c([I+]c2ccccc2)c(=O)oc2ccccc12; organism = dengue virus 2; assay = cytopathic effect; system = BHK-21; conditions = concentration not given; measurement = inhibition; value = ≤ 12%
SMILES = Oc1c(Cl)cc(Cl)c2cccnc12; organism = Aeromonas hydrophila; assay = microbial growth, agar dilution; measurement = MIC; value = 37.4 µM (≈ 8 µg/mL)
SMILES = Cc1ccc(O)c(C=NNC(=N)NO)n1; organism = human adenovirus 5; assay = viral replication; system = A549, McEwen; conditions = 120 µM; measurement = plaque reduction; value = 75%
SMILES = COc1cc(/C=C/C(=O)N[C@@H](CCCCCC(=O)NO)C(=O)Nc2cccc3cccnc23)cc(OC)c1O; organism = Lucilia cuprina; assay = pupation; system = LS strain, larvae on impregnated cotton wool; conditions = 216 h; measurement = IC50; value = > 1000 µg
SMILES = C=C(C)[C@@H]1CC[C@]2(CCCNCCN3CCS(=O)(=O)CC3)CC[C@]3(C)[C@H](CC[C@@H]4[C@@]5(C)CC[C@H](OC(=O)CC(C)(C)C(=O)O)C(C)(C)[C@@H]5CC[C@]43C)[C@@H]12; organism = human immunodeficiency virus 1; assay = western blot; system = HEK293T transfected, subtype B NL4-3, virion lysates; conditions = 100 nM; how to read = reference: total CA; measurement = CA-SP1 accumulation; value = < 1%
SMILES = C=CC1CN(C(=O)NCC=CCSCC=CCNC(=O)N2CC(C=C)OC2=S)C(=S)O1 (stereo not shown); organism = Enterovirus B; assay = viral replication, inhibitor; system = B3; measurement = IC50; value = 710 nM
SMILES = CC1=CC[C@@H]2C[C@H]1C2(C)C; organism = Mythimna separata; assay = olfactory preference, Y-tube olfactometer; conditions = males; how to read = reference: liquid paraffin control; measurement = choice of control; value = 67%
SMILES = CN(C)c1ccc(C(=O)N[C@@H](CSCCCC(=O)NO)C(=O)NC2CCCc3ccccc32)cc1 (stereo partly shown); organism = Lucilia cuprina; assay = larval weight gain; system = LS strain, larvae on impregnated cotton wool; conditions = 24 h; measurement = IC50; value = 254 µg
SMILES = Oc1c(Br)cc(Br)c2nc3c(C(F)(F)F)cc(C(F)(F)F)cc3nc12; organism = Staphylococcus aureus; assay = Calgary Biofilm Device; system = MRSA 1707; conditions = biofilm; measurement = MBC; value = 1.56 µM (≈ 0.764 µg/mL)
SMILES = Cc1ccccc1C(c1c[nH]c(=O)[nH]c1=O)c1c[nH]c(=O)[nH]c1=O; organism = HIV-1 subtype C; assay = viral replication, refers to: p24; measurement = IC50; value = 152 µg/mL
SMILES = O=C(NO)c1cccc2ccccc12; organism = Lucilia cuprina; assay = larval weight gain; system = LS strain, larvae on impregnated cotton wool; conditions = 24 h; measurement = IC50; value = 778 µg

Excerpt of the above:
SMILES = CC1(CCCCCCCCCCOCCCOP(=O)(O)CO[C@H](CO)Cn2ccc(N)nc2=O)COC1; organism = Betapolyomavirus hominis; assay = qPCR; system = Gardner; how to read = reference: CC50 over EC50; measurement = selectivity index; value = > 59
SMILES = C=Cc1cn([C@@H]2O[C@H](CO)C[C@H]2O)c2ncnc(N)c12; organism = Trypanosoma vivax; assay = parasite growth, resazurin; conditions = 24 h; measurement = EC50; value = 1570 nM
SMILES = O=c1[nH]cc(C(c2cccc(F)c2)c2c[nH]c(=O)[nH]c2=O)c(=O)[nH]1; organism = HIV-1 subtype C; assay = refers to: p24; conditions = concentration not given; measurement = antiviral activity; value = inactive
SMILES = C#Cc1cn([C@@H]2O[C@H](CO)C[C@H]2O)c2ncnc(N)c12; organism = Trypanosoma vivax; assay = parasite growth, resazurin; conditions = 24 h; measurement = EC50; value = 159 nM
SMILES = COc1ccc(-c2ccn(CC[C@](C)(C(=O)NO)S(C)(=O)=O)c(=O)c2)c(F)c1; organism = Pseudomonas aeruginosa; system = PA-1950, mice acute septicaemia model; conditions = subcutaneous; measurement = ED50; value = 7.4 mg/kg
SMILES = Fc1ccc2c(c1)c1nc3ccc(Br)cc3c-1cn2Cc1cn(-c2ccccc2I)nn1; organism = Giardia duodenalis; assay = UHPLC-Q-TOF-MS, refers to: PS(P-20:0/22:6); system = trophozoites; conditions = IC50, 0.2083 h; how to read = reference: 0.25% DMSO; measurement = fold change; value = -64.8
